Measurements collected from several papers.
Protocols differ between the studies behind these lines. “And” joins repeats or separate records; there may be more than shown. ± gives the spread as reported.

CC(C)NCC(O)c1ccc(O)c(O)c1 (stereo not shown) — sarcomere length (mouse ventricular cardiomyocytes; dose not given, 0.435 s): 1.7 µm
C[C@H](CS)C(=O)N1CCC[C@H]1C(=O)O — MDA content (HUVEC; 10 µM, together with: angiotensin II): 6.46 nmol/mL
Cc1nn(-c2nc3ccc(Cl)c(Cl)c3[nH]2)c(O)c1C1OC(=O)c2ccccc21 (stereo not shown) — phospho-TBK1/TBK1 ratio (RAW-ISG; TBK1 phosphorylation, western blot; 10 µM, together with: poly(I:C); reference: DMSO): 0.791 and 0.878
CC=CC(=O)N(CC)c1ccccc1C (mixture of isomers) — inhibition (THP-1; pyroptotic LDH release; 2 µM, 40 min, together with: LPS then nigericin): -1.22%
CCOC(=O)CSc1nc(-c2ccc(Cl)cc2)c2c(NC(=O)c3ccccc3)nnc-2[nH]1 — cell growth (OVCAR-8; SRB; 10 µM, NCI60 single-dose screen; reference: untreated): 102%
CCCCCCCCCc1ccc(OCCOCCOCCOCCOCCOCCOCCOCCOCCO)cc1 — MyBP-C level change (human iPSC cardiomyocytes; plate-normalised; concentration not given, hit retest; reference: vehicle controls, SDs below control): 11.9 SD
CC/C(=N\NC(=O)NCc1cccc(O)c1)c1ccc(O)c(C)c1O — protein level (SK-OV-3; Western blot, item: phospho-YAP; 10 µM, 6 h, 3D gellan gum culture, unit not given; reference: total YAP): 0.25 ± 0.09
O=c1c(O)c(-c2ccc(O)cc2)oc2cc(O)cc(O)c12 — IL-1β level (coculture, Caco-2, THP-1; ELISA; 50 ng/mL, 8 h, together with: LPS, IFNγ, ATP; reference: untreated control): 8.8 ± 1.1 fold change
CC(C)NC(=O)COc1cccc(-c2nc(Nc3ccc4[nH]ncc4c3)c3ccccc3n2)c1 — EC50 (HEK293T ATF4-FLuc reporter; ATF4 reporter gene, activator, luciferase reporter): 1580 nM
Clc1nc(NCc2ccco2)c2[nH]cnc2n1 — ΔPSI (FD iPSC-derived cardiomyocytes; alternative splicing, RNA-seq, item: DPY19L2 exon chr12(-):63569223-63569349; unit not given; reference: DMSO minus compound): -0.323
COc1cc(O)c2c(=O)c(O)c(-c3ccc(O)c(O)c3)oc2c1 — kynurenine level (Caco-2/THP-1 co-culture; concentration not given, together with: LPS 50 ng/mL): 133 ± 11.9 % change
CSc1cc(Oc2ccnc3[nH]c(=O)cnc23)ccc1NC(=O)Nc1cc(C(C)(C)C)nn1-c1ccccc1 — phospho/total mTOR ratio (patient-derived cell clone B (sample A); reverse phase protein array, item: mTOR phosphosite 2448; human; 1 µM, 4 h; reference: DMSO): 0.92
O=C(NC[C@H]1CN(c2ccc(N3CCOCC3=O)cc2)C(=O)O1)c1ccc(Cl)s1 — inhibition (THP-1; pyroptotic LDH release; 2 µM, 40 min, together with: LPS then nigericin): 0.02%
C=CC1=C(C)c2cc3[n-]c(cc4nc(cc5[n-]c(cc1n2)c(C)c5C=C)C(C)=C4CCC(=O)O)c(CCC(=O)O)c3C.[Zn+2] — fold change (SH-SY5Y; RNA-seq, item: THBS1 mRNA; 5 µM, 5 h; reference: untreated cells): 1.6
Cc1cc(Nc2ncc(Cl)c(Nc3ccccc3S(=O)(=O)C(C)C)n2)c(OC(C)C)cc1C1CCNCC1 — log2 fold change (CLB-BAR; phosphoproteomics LC-MS/MS, item: AKT3 phosphorylation; 200 nM, 60 min; reference: untreated): -4.34
CC(C)(C)NC(=O)c1cncn1C1CCN(c2ccc(-c3nnc(C(F)(F)F)o3)cn2)CC1 — mRNA level (HDMEC; qPCR, item: L-GILZ; concentration not given, unit not given; reference: DMSO): 2.5
Nc1ncnc2c1ncn2[C@@H]1O[C@H](COP(=O)(O)OP(=O)(O)OP(=O)(O)O)[C@@H](O)[C@H]1O — IL-1β release (THP-1 ASC knockout, PMA-differentiated, Pam3CSK4-primed; inducer, ELISA; concentration not given): 7.46 pg/mL and 11.2 pg/mL and 9.39 pg/mL
CCn1cc(-c2cc(Cn3ccnc3)cc3c2CCN([C@H](c2cc(OC)ccn2)C2CC2)C3=O)c(C(F)(F)F)n1 — EC50 (SNU-423; cell growth, inhibitor; 120 h): 21000 nM
Cn1cc(-c2ccc(-c3cncc(Cl)c3N3CCC4(CCNC4=O)CC3)cc2)cn1 — log2 fold change (COLO 205; gene expression, microarray, item: EPAS1 mRNA; concentration not given, 2 h; reference: untreated cells): 8.68
COc1c(O)cc2c(c1O)C(=O)c1c(cc(C)c(O)c1OC)C2=O — viability (HK-2 co-cultured with HepaRG; MTT; 266.67 µM, 24 h; reference: untreated control): 73.6 ± 10.4%
O=C(O)CCc1cccc(O)c1 — kynurenine level (Caco-2/THP-1 co-culture; concentration not given, together with: LPS 50 ng/mL): 164 ± 15.2 % change
CCn1cc(-c2cc(Cn3ccoc3=N)cc3c2CCN([C@@H](C)c2cc(OC)ccn2)C3=O)c(C(F)(F)F)n1 — EC50 (OCI-Ly10; cell growth, inhibitor; 120 h): 9.77 nM
Cc1[nH]c2ccccc2c1CCNCc1ccc(/C=C/C(=O)NO)cc1 — EC50 (HEK293T ATF4-FLuc reporter; ATF4 reporter gene, activator, luciferase reporter): 110 nM
CC1(C)COc2ccc(F)cc2CN2c3nc4c(cnn4cc3OC[C@H]2C(F)F)C(=O)N1 — Emax (Ba/F3 EML4-ALK variant 1 L1196Q; cell viability): 98.7%
O=C(/C=C/c1cccc(S(=O)(=O)Nc2ccccc2)c1)NO — EC50 (HEK293T ATF4-FLuc reporter; ATF4 reporter gene, activator, luciferase reporter): 882 nM
CCOC(=O)c1cc(Cl)cc(NC(=O)c2sc(Cl)cc2S(=O)(=O)N(C)c2ccc(OCC)c(OC)c2)c1 — mRNA level (primary mouse glial cells; qPCR, item: ABCG1; concentration not given, 24 h): increased
c1ccc(-c2nc3n(c2-c2ccc4sc5ccccc5c4c2)CCC3)nc1 — IC50 (Leishmania infantum; macrophages, MHOM/MA(BE)/67/ITMAP263, amastigote): 170 nM and 520 nM
C[C@@]12C(=O)OC(=O)[C@]1(C)[C@H]1CC[C@@H]2O1 — inhibition (THP-1; pyroptotic LDH release; 2 µM, 40 min, together with: LPS then nigericin): -22.3%
CCc1cnc(N2CCC(c3nc(COc4ccc(-n5cnnn5)cc4)cs3)CC2)nc1 — normalized enrichment score (HEK-293T; RNA-seq GSEA, item: HALLMARK_HEME_METABOLISM; concentration not given; direction not given): 1.45
COc1cc(/C=C/C(=O)N2CCC=CC2=O)cc(OC)c1OC — mRNA level (MDA-MB-468; quantitative RT-PCR, item: FAS; 30 µM, 8 h; reference: untreated cells): 173 ± 8.9%
CCOC(=O)CCC(=O)O[C@H]1[C@H](O[C@@H]2[C@@H](C)[C@H](O[C@H]3C[C@@](C)(OC)[C@@H](O)[C@H](C)O3)[C@@H](C)C(=O)O[C@H](CC)[C@@](C)(O)[C@H](O)[C@@H](C)C(=O)[C@H](C)C[C@@]2(C)O)O[C@H](C)C[C@@H]1N(C)C — inhibition (THP-1; pyroptotic LDH release; 2 µM, 40 min, together with: LPS then nigericin): -4.39%
CC(=O)Nc1cccc(-n2c(=O)n(C3CC3)c(=O)c3c(Nc4ccc(I)cc4F)n(C)c(=O)c(C)c32)c1 — fractional effect (LoVo (KRAS G13D); cell viability, resazurin; 100.00 nM, 72 h; reference: DMSO): 0.719 and 0.698
CN(C)CCn1c(C(=O)N2CCN(c3ccccc3Cl)CC2)c(C(c2ccc(O)cc2)c2ccc(O)cc2)c2ccccc21 — EC50 (HEK293T ATF4-FLuc reporter; ATF4 reporter gene, activator, luciferase reporter): 5880 nM
Cc1cccc(-c2[nH]c(CNc3ccccc3F)nc2-c2ccc3ncnn3c2)n1 — viability (MM1.S; XTT; 0.4 µM; reference: untreated): 93%
COc1cc(-c2oc3cc(O)cc(O)c3c(=O)c2O)ccc1O — IL-1β level (coculture, Caco-2, THP-1; ELISA; 50 ng/mL, 8 h, together with: LPS, IFNγ, ATP; reference: untreated control): 7.5 ± 1.8 fold change
CCCCN1CCN(c2ccc3[nH]c(-c4ccc5[nH]c(-c6ccc(C(F)(F)F)cc6)nc5c4)nc3c2)CC1 — growth percent (RXF 393; SRB; 10 µM, 48 h): -82%
O=C(O)CCc1ccc(O)cc1 — transepithelial electrical resistance (Caco-2/THP-1 co-culture; TEER; 0.05 µg/mL, together with: LPS 50 ng/mL; reference: control): 88 ± 9.2%
COc1cnc2cccc(N3CCc4c(cc(Cn5ccnc5C)cc4-c4cn(C)nc4C(F)(F)F)C3=O)c2c1 — EC50 (COR-L105; cell growth, inhibitor; 120 h): > 30000 nM
Cn1cc(Nc2nccc(-c3ccc4c(c3)CN(C3COC3)CC[C@H]4NC(=O)c3cn(C(C)(C)C)nn3)n2)cn1 — number of upregulated genes (human B cells; 100 nM, 64 h, stimulation-upregulated genes, together with: CD40L, anti-IgM, IL-4): 9
O=C(c1cc(Cc2n[nH]c(=O)c3ccccc23)ccc1F)N1CCN(C(=O)C2CC2)CC1 — colony survival (MDA-MB-436 BRCA1-mutant; colony formation; 40 nM; reference: vehicle (DMSO)): 18.6%
COc1cc2c(c(O)c1OC)C(=O)c1c(cc(C)c(O[C@@H]3O[C@H](CO)[C@@H](O)[C@H](O)[C@H]3O)c1OC)C2=O — cell viability (HK-2 co-cultured with HepaRG; MTT; 133.33 µM, 24 h; reference: untreated control): 74.2 ± 6.29%
O=C(NO)c1ccc(C2=Nc3ccccc3Oc3ccccc32)cc1 — EC50 (HEK293T ATF4-FLuc reporter; ATF4 reporter gene, activator, luciferase reporter): 2230 nM
O[C@@H]1CO[C@H]2[C@@H]1OC[C@@H]2O — inhibition (THP-1; pyroptotic LDH release; 2 µM, 40 min, together with: LPS then nigericin): -8.01%
CCCCc1nc(Cl)c(CO)n1Cc1ccc(-c2ccccc2-c2nn[nH]n2)cc1 — log2 fold change (human PBMC; RNA-seq, item: MT1F mRNA; 10 µg/mL, 24 h; reference: untreated control): 1.56
COc1ncnc(NS(=O)(=O)c2ccc(N)cc2)c1OC — inhibition (THP-1; pyroptotic LDH release; 2 µM, 40 min, together with: LPS then nigericin): 30.6%
O=C(Nc1nnc2n3c(nc(-c4ccc(Cl)cc4)c1-2)SCC3=O)c1ccccc1 — cell growth (OVCAR-8; SRB; 10 µM, NCI60 single-dose screen; reference: untreated): 99.8%

Repeated from above:
O=C(Nc1nnc2n3c(nc(-c4ccc(Cl)cc4)c1-2)SCC3=O)c1ccccc1 — cell growth (OVCAR-8; SRB; 10 µM, NCI60 single-dose screen; reference: untreated): 99.8%
O=c1c(O)c(-c2ccc(O)cc2)oc2cc(O)cc(O)c12 — IL-1β level (coculture, Caco-2, THP-1; ELISA; 50 ng/mL, 8 h, together with: LPS, IFNγ, ATP; reference: untreated control): 8.8 ± 1.1 fold change
O=C(NO)c1ccc(C2=Nc3ccccc3Oc3ccccc32)cc1 — EC50 (HEK293T ATF4-FLuc reporter; ATF4 reporter gene, activator, luciferase reporter): 2230 nM
CC(C)NCC(O)c1ccc(O)c(O)c1 (stereo not shown) — sarcomere length (mouse ventricular cardiomyocytes; dose not given, 0.435 s): 1.7 µm
O[C@@H]1CO[C@H]2[C@@H]1OC[C@@H]2O — inhibition (THP-1; pyroptotic LDH release; 2 µM, 40 min, together with: LPS then nigericin): -8.01%
